Measured values collected from several papers.
Each numbered part is a random draw from the data of one study; scales do not carry over between parts.
UniProt Q9H3N8, sequence (whole entry, looked up): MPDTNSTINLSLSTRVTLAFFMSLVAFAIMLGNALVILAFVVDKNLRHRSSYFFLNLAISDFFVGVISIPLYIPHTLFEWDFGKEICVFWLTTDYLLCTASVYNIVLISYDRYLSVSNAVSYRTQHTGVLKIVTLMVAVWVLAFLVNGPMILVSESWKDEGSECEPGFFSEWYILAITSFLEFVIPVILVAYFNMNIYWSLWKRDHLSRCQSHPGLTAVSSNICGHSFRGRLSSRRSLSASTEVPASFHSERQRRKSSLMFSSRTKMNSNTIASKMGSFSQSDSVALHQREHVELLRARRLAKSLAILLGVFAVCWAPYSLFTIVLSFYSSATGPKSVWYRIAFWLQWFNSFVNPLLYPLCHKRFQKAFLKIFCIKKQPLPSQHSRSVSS
UniProt P49759, sequence (whole entry, looked up): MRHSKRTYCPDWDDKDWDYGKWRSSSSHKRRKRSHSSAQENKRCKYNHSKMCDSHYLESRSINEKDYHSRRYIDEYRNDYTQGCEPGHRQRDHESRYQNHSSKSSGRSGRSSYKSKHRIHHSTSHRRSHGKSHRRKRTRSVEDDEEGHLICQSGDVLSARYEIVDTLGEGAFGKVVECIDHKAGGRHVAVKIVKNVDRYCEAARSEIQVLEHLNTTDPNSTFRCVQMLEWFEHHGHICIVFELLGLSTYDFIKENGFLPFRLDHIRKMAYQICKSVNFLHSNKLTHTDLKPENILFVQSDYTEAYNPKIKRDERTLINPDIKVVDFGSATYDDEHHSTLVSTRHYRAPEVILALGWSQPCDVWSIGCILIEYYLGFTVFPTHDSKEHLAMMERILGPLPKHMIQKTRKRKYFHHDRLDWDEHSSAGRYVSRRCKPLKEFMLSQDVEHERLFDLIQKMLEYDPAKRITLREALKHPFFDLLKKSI
UniProt Q13233, sequence (whole entry, looked up): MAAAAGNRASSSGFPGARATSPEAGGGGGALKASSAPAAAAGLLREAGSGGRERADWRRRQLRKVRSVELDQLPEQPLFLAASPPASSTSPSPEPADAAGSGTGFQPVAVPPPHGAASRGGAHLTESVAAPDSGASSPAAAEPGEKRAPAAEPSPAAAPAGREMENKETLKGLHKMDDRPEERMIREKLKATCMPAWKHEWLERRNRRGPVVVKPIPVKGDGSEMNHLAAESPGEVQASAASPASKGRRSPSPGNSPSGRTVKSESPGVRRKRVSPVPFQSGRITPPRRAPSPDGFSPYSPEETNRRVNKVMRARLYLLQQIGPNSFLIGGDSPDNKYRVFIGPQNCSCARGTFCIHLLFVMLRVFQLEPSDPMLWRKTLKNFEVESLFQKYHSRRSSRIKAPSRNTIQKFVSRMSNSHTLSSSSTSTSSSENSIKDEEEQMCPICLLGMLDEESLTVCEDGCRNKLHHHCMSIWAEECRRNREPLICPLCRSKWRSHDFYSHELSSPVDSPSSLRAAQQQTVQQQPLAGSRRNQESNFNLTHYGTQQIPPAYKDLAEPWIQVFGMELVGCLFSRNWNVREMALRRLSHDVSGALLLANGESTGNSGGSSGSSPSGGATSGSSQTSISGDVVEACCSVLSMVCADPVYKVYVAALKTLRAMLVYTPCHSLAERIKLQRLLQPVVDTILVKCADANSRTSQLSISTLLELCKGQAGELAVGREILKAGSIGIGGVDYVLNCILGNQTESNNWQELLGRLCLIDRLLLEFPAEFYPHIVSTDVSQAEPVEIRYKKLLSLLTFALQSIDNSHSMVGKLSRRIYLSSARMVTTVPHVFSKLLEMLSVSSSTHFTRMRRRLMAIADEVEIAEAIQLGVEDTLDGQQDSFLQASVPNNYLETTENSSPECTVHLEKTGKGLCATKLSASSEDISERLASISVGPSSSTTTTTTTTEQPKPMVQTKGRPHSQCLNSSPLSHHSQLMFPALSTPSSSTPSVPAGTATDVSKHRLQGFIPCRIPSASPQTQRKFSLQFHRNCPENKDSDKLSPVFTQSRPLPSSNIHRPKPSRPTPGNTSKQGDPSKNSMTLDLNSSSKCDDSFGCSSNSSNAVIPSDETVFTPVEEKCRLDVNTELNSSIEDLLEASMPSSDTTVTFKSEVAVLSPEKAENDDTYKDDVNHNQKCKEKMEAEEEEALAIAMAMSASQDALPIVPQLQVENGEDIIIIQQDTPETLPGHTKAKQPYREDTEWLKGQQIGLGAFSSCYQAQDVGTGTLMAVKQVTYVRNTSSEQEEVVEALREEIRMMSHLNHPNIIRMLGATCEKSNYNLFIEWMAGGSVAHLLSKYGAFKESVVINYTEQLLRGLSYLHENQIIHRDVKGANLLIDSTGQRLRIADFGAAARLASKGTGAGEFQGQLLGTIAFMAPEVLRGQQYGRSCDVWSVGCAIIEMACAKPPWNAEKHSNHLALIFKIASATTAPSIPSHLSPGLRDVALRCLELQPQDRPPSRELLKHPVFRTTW
UniProt Q5BJF2, sequence (whole entry, looked up): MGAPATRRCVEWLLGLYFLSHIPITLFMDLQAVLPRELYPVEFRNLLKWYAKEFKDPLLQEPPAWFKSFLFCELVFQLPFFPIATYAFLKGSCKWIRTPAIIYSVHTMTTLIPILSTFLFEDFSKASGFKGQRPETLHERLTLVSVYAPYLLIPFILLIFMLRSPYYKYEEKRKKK
UniProt P04629, sequence (whole entry, looked up): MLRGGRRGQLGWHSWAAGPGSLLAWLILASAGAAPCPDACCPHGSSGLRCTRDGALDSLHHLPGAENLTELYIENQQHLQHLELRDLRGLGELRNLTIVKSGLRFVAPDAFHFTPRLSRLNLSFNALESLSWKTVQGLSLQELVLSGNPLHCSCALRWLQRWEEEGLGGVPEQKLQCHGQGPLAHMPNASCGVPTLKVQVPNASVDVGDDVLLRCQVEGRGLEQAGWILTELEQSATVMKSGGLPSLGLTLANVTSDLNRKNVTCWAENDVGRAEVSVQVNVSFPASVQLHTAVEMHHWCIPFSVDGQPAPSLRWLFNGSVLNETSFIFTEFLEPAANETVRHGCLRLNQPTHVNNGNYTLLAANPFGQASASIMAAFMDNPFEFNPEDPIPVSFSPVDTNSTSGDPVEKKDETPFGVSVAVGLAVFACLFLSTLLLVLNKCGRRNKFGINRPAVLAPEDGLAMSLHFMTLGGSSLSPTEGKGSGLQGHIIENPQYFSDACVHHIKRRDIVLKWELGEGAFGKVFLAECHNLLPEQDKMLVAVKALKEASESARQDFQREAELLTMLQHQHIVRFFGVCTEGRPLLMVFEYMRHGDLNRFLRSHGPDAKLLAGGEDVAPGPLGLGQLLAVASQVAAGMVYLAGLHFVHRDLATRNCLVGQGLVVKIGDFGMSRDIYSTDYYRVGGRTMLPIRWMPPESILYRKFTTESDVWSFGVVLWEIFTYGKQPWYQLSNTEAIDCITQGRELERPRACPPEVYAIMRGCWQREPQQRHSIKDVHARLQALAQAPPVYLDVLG
UniProt P34969, sequence (whole entry, looked up): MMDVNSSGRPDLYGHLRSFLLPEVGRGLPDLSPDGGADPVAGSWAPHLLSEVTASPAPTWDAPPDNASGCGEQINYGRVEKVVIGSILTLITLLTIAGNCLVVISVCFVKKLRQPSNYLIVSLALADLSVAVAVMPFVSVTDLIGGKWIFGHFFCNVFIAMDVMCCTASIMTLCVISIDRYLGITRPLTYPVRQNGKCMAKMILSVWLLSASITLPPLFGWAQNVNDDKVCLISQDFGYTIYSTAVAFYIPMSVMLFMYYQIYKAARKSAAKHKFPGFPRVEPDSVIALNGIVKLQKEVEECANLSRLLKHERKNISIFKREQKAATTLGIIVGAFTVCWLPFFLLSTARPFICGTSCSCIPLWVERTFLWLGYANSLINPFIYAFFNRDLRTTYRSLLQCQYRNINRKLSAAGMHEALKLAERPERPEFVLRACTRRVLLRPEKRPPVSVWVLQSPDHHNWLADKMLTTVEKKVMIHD

Block 1
SMILES: COc1ccc2[nH]c3c4[nH]c5ccc(OC)cc5c4c4c(c3c2c1)C(=O)NC4=O
Concentration: 1 µM
It gave 45% for remaining binding (MAST1 (Homo sapiens, UniProt Q9Y2H9); competitive binding panel; reference: vehicle).
For CDK14 (Homo sapiens, UniProt O94921); competitive binding panel, item: PFTK1; reference: vehicle: remaining binding read 85%.
For Myosin-IIIb (MYO3B, Homo sapiens, UniProt Q8WXR4); competitive binding panel; reference: vehicle: remaining binding read 100%.
For NTRK1 (Homo sapiens, UniProt P04629); competitive binding; TRKA: remaining binding read 40%.
The remaining binding was 96% (TAOK3 (Homo sapiens, UniProt Q9H2K8); competitive binding panel; reference: vehicle).
CLK1 (Homo sapiens, UniProt P49759); competitive binding panel; reference: vehicle — remaining binding: 80%.
For PAK5 (Homo sapiens, UniProt Q9P286); competitive binding panel, item: PAK7; reference: vehicle: remaining binding read 91%.
For CDK18 (Homo sapiens, UniProt Q07002); competitive binding panel, item: PCTK3; reference: vehicle: remaining binding read 80%.
For TNK2 (Homo sapiens, UniProt Q07912); competitive binding panel; reference: vehicle: remaining binding read 69%.
For MAP2K1 (Homo sapiens, UniProt Q02750); competitive binding; MEK1: remaining binding read 70%.
The remaining binding was 71% (MAP3K1 (Homo sapiens, UniProt Q13233); competitive binding panel; reference: vehicle).
For AXL (Homo sapiens, UniProt P30530); competitive binding panel; reference: vehicle: remaining binding read 30%.
It gave 49% for remaining binding (KIT (Homo sapiens, UniProt P10721, T670I/V559D); competitive binding panel; reference: vehicle).
It gave 28% for remaining binding (FLT3 (Homo sapiens, UniProt P36888); competitive binding panel; reference: vehicle).
It gave 12% for remaining binding (CHEK1 (Homo sapiens, UniProt O14757); competitive binding panel; reference: vehicle).

Block 2
SMILES: Cc1nc(Nc2ncc(C(=O)Nc3c(C)cccc3Cl)s2)cc(N2CCN(CCO)CC2)n1
Mode: inhibitor
For BMPR1A (Homo sapiens, UniProt P36894); 10 µM: inhibition read 76%.
CDC42BPA (Homo sapiens, UniProt Q5VT25); 10 µM — inhibition: 90%.
It gave less than 50% for inhibition (PLK4 (Homo sapiens, UniProt O00444); 1 µM).
For TEK (Homo sapiens, UniProt Q02763); 10 µM: inhibition read less than 50%.
For CAMK2G (Homo sapiens, UniProt Q13555); 10 µM: inhibition read less than 50%.
The inhibition was 100% (TXK (Homo sapiens, UniProt P42681); 10 µM).
It gave less than 50% for inhibition (COQ8A (Homo sapiens, UniProt Q8NI60); 1 µM).
Insulin receptor (INSR, Homo sapiens, UniProt P06213); 10 µM — inhibition: less than 50%.
BMP2K (Homo sapiens, UniProt Q9NSY1); 10 µM — inhibition: less than 50%.
For PKN1 (Homo sapiens, UniProt Q16512); 10 µM: inhibition read less than 50%.
PLK3 (Homo sapiens, UniProt Q9H4B4); 10 µM — inhibition: less than 50%.

Block 3
Target: Mitogen-activated protein kinase kinase kinase 9 (MAP3K9, Homo sapiens, UniProt P80192)
UniProt P80192, sequence (whole entry, looked up): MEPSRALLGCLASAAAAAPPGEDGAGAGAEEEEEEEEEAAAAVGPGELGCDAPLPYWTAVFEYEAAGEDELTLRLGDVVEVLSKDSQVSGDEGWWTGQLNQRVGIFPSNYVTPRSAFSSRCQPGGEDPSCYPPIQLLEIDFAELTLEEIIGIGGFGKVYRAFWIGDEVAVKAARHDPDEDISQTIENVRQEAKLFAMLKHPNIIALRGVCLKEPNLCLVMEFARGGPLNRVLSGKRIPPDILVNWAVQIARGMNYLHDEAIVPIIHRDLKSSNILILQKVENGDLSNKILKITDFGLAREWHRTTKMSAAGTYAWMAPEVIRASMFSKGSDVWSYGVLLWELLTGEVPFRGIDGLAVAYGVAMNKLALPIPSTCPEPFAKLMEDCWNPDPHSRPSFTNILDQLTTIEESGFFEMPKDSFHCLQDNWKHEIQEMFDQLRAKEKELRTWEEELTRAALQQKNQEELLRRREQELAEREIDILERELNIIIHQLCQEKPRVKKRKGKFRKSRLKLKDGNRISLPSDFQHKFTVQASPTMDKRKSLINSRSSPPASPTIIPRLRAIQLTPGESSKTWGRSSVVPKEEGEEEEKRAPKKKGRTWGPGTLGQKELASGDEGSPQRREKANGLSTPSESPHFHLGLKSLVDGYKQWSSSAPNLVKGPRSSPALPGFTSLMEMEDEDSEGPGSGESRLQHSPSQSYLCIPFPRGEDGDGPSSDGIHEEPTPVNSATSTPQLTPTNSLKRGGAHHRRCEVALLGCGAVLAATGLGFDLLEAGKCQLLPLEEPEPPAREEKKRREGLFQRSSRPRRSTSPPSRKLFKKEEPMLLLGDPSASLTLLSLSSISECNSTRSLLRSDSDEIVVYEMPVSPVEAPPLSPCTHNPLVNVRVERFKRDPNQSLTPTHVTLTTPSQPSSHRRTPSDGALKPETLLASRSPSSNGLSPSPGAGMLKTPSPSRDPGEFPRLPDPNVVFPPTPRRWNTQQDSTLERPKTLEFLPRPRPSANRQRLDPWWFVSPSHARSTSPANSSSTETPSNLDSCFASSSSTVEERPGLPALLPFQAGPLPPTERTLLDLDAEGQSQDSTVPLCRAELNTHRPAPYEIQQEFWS
Read-out: enzyme activity
Mode: inhibitor
Concentration: 0.5 µM
Reference: control
With `O=C(Nc1cccc(Nc2nccc(Nc3cccc(C(F)(F)F)c3)n2)c1)C1CC1` the remaining activity was 95.2%.
The remaining activity of `COc1cc2ncnc(Nc3cccc(Cl)c3)c2cc1OC` is reported as 82.8%.
`Nc1cccc(-c2cc3c(Oc4cccc(O)c4)ncnc3[nH]2)c1` gave a remaining activity of 16.2%.
`CN([C@@H](Cc1ccc(OS(=O)(=O)c2cccc3cnccc23)cc1)C(=O)N1CCN(c2ccccc2)CC1)S(=O)(=O)c1cccc2cnccc12` has a remaining activity of 104%.
The remaining activity of `c1ccc(-c2[nH]ncc2-c2ccnc3ccccc23)nc1` is reported as 90.4%.
The remaining activity of `O=C(NC(NC(=S)Nc1ccc(F)c([N+](=O)[O-])c1)C(Cl)(Cl)Cl)C(c1ccccc1)c1ccccc1` (stereo not drawn) is reported as 94%.
With `Cc1cn(-c2cc(NC(=O)c3ccc(C)c(Nc4nccc(-c5cccnc5)n4)c3)cc(C(F)(F)F)c2)cn1` the remaining activity was 112%.
The remaining activity of `N#Cc1c(NC(=O)c2cccc3ccccc23)sc2c1CCCC2` is reported as 99.5%.
With `COc1cc2c(cc1OC)-c1[nH]nc(Nc3cccc(F)c3)c1C2` the remaining activity was 90%.
`Cc1nc2cc3nc(-c4cccs4)cnc3cc2n1C` gave a remaining activity of 90.3%.
For `O=C1C(Cl)=C(N2C(=O)CCC2=O)C(=O)c2ccccc21`, the remaining activity was 106%.
`Ic1cccc(CSc2nnc(-c3ccncc3)o2)c1` gave a remaining activity of 108%.
With `CCN(CC)C(=O)c1ccc(Nc2nc(OCC3CCCCC3)c3[nH]cnc3n2)cc1` the remaining activity was 3.8%.
For `CN(C)C[C@H]1CCn2c(c(C3=C(c4cn(C)c5ccccc45)C(=O)NC3=O)c3ccccc32)C1`, the remaining activity was 90.8%.
`CCOc1nc(NC(=O)Cc2cc(OC)ccc2OC)cc(N)c1C#N` has a remaining activity of 103%.
The remaining activity of `c1ccc(-c2cnc(Nc3ccc(OCCN4CCCC4)cc3)s2)cc1` is reported as 94.3%.
`Cc1cc2ncc(-c3ccccc3)nc2cc1C` has a remaining activity of 92.6%.
The remaining activity of `N#C/C(=C\c1ccc(O)c(O)c1)C(=O)NCc1ccccc1` is reported as 95.5%.
The remaining activity of `O=c1cc(-c2cccc3c2Sc2ccccc2S3)oc(N2CCOCC2)c1` is reported as 95.5%.
With `CCN(CC)CCNC(=O)c1c(C)[nH]c(/C=C2\C(=O)Nc3ccc(Cl)cc32)c1C` the remaining activity was 49.6%.
The remaining activity of `O=C1c2ccccc2-c2n[nH]c3cccc1c23` is reported as 33.6%.
`C[C@@H]1CCN(C(=O)CC#N)C[C@@H]1N(C)c1ncnc2[nH]ccc12` gave a remaining activity of 113%.
`Cn1nc2c3c(cccc31)C(=O)c1ccccc1-2` has a remaining activity of 99.4%.

Block 4
Compound: CCNC(=O)c1cc2c(N3CCOC[C@@H]3C)ccnc2[nH]1
Read-out: ligand displacement
Technique: radioligand
Concentration: 10 µM
The inhibition was -7.82% (DRD3 (Homo sapiens, UniProt P35462)).
It gave 1.92% for inhibition (DRD1 (Homo sapiens, UniProt P21728)).
It gave 1.31% for inhibition (HRH2 (Homo sapiens, UniProt P25021)).
It gave 1.88% for inhibition (ADRA1A (Homo sapiens, UniProt P35348)).
The inhibition was 8.58% (ADRA1D (Homo sapiens, UniProt P25100)).
For HRH4 (Homo sapiens, UniProt Q9H3N8): inhibition read 0.0286%.
The inhibition was -1.37% (HTR3A (Homo sapiens, UniProt P46098)).
For HTR6 (Homo sapiens, UniProt P50406): inhibition read -8.52%.
HTR2B (Homo sapiens, UniProt P41595) — inhibition: 47.1%.
It gave 34.6% for inhibition (TMEM97 (Homo sapiens, UniProt Q5BJF2)).
ADRA2A (Homo sapiens, UniProt P08913) — inhibition: 18.1%.
For ADRA2C (Homo sapiens, UniProt P18825): inhibition read 3.16%.
It gave -4.45% for inhibition (HTR7 (Homo sapiens, UniProt P34969)).
ADRB2 (Homo sapiens, UniProt P07550) — inhibition: -6.09%.

Repeated from above (block 1):
CLK1 (Homo sapiens, UniProt P49759); competitive binding panel; reference: vehicle — remaining binding: 80%.
For CDK14 (Homo sapiens, UniProt O94921); competitive binding panel, item: PFTK1; reference: vehicle: remaining binding read 85%.
For TNK2 (Homo sapiens, UniProt Q07912); competitive binding panel; reference: vehicle: remaining binding read 69%.
For PAK5 (Homo sapiens, UniProt Q9P286); competitive binding panel, item: PAK7; reference: vehicle: remaining binding read 91%.
